Results pooled from the literature.

SMILES | cell line | test | conditions | CC50
CCCc1ccc2c(c1O)C(c1ccc(OC)c(OC)c1)OC2=O (centres unmarked) | J774.A1 | cell growth or viability, resazurin | 24 h | ≥ 152 µM
C=C(C)[C@@H]1CC[C@]2(C(N)=O)CC[C@]3(C)[C@H](CC[C@@H]4[C@@]5(C)CCCNC(C)(C)[C@@H]5CC[C@]43C)[C@@H]12 | primary HFF | cell viability, CellTiter-Glo | HSV-1 assay setting | 12.8 µM
COc1ccc(C2OC(=O)c3ccc(C)c(O)c32)c(OC)c1OC (centres unmarked) | J774.A1 | cell growth or viability, resazurin | 24 h | ≥ 151 µM
CC(C)(C)c1ccc(OC(=O)/C=C/C#N)cc1 | J774.A1 | cell growth or viability, resazurin | 24 h | 79.5 µM
CC1(C)NCCC[C@]2(C)[C@H]3CC=C4[C@@H]5C[C@@](C)(CO)CC[C@]5(C)CC[C@@]4(C)[C@]3(C)CC[C@@H]12 | primary HFF | cell viability, CellTiter-Glo | HCMV AD169 assay setting | 18.6 µM
COc1ccc(C2OC(=O)c3ccc(-c4ccccc4)c(O)c32)c(OC)c1OC (centres unmarked) | J774.A1 | cell growth or viability, resazurin | 24 h | ≥ 510 µM
CCN(CC)CCCC(C)Nc1cc[n+]([Ru-]([OH2+])[OH2+])c2cc(Cl)ccc12.Cc1ccc(C(C)C)cc1.F[B-](F)(F)F.F[B-](F)(F)F (centres unmarked) | Jurkat | cytotoxicity | – | 81 µM
Nc1nc2c(ncn2[C@H]2C[C@H](O)[C@@H](CO)/C2=C\F)c(=O)[nH]1 | HepG2.2.15 | cell growth or viability, CCK-8 | 14 days | 83 µM
Cc1ccc(S(=O)(=O)Nn2c3c(cc(-c4nc5ccccc5s4)c2=O)CCCC3)cc1 | FRhK-4 | cell growth or viability, trypan blue | – | 320 µg/mL
C=C(C)[C@@H]1CC[C@]2(C(=O)n3ccnc3)CC[C@]3(C)[C@H](CC[C@@H]4[C@@]5(C)CCCNC(C)(C)[C@@H]5CC[C@]43C)[C@@H]12 | C-33 A | cell viability, CellTiter-Glo | – | 2.83 µM
COc1ccc(C2OC(=O)c3ccc(C(C)C)c(O)c32)cc1OC (centres unmarked) | J774.A1 | cell growth or viability, resazurin | 24 h | ≥ 305 µM
C[C@H]1[C@H](C)CC[C@]2(CO)CC[C@]3(C)C(=CC[C@@H]4[C@@]5(C)CCCNC(C)(C)[C@@H]5CC[C@]43C)[C@H]12 | C-33 A | cell viability, CellTiter-Glo | – | 3.32 µM
Cc1ccc(S(=O)(=O)Nn2c3c(cc(-c4nc5ccccc5s4)c2=O)CCCCCC3)cc1 | FRhK-4 | cell growth or viability, trypan blue | – | 300 µg/mL
COc1cc(C2c3cc4c(cc3C(C(C)C)C3COC(=O)C23)OCO4)cc(OC)c1OC (centres unmarked) | mouse Splenocyte | cell growth or viability, resazurin | 48 h | 0.4 µM
N#C/C=C/C(=O)Oc1cccc(F)c1 | J774.A1 | cell growth or viability, resazurin | 24 h | 34 µM
C=C(C)[C@@H]1CCC=C2CC[C@]3(C)[C@H](CC[C@@H]4[C@@]5(C)CCCNC(C)(C)[C@@H]5CC[C@]43C)[C@H]21 | primary HFF | cell viability, CellTiter-Glo | HCMV AD169 assay setting | 15.3 µM
CCc1ccc2c(c1O)C(c1ccc(OC)c(OC)c1OC)OC2=O (centres unmarked) | J774.A1 | cell growth or viability, resazurin | 24 h | ≥ 290 µM
COc1cc(COC(=O)C2C(C=O)=Cc3cc4c(cc3C2c2cc(OC)c(OC)c(OC)c2)OCO4)cc(OC)c1OC (centres unmarked) | mouse Splenocyte | cell growth or viability, resazurin | 48 h | 51.3 µM
CC1(C)CC[C@]2(CO)CC[C@]3(C)C(=CC[C@@H]4[C@@]5(C)CCCNC(C)(C)[C@@H]5CC[C@]43C)[C@@H]2C1 | C-33 A | cell viability, CellTiter-Glo | – | 0.78 µM
CCCc1ccc2c(c1O)C(c1ccc(OC)cc1)OC2=O (centres unmarked) | J774.A1 | cell growth or viability, resazurin | 24 h | ≥ 335 µM
COC(=O)C1C(C=NO)=Cc2cc3c(cc2C1c1cc(OC)c(OC)c(OC)c1)OCO3 (centres unmarked) | mouse Splenocyte | cell growth or viability, resazurin | 48 h | > 100 µM
CCCc1ccc2c(c1O)C(c1ccc(OC)c(OC)c1OC)OC2=O (centres unmarked) | J774.A1 | cell growth or viability, resazurin | 24 h | 94.5 µM
COc1cc(C2c3cc4c(cc3C=C(C=O)C2C(=O)OCC=Cc2ccccc2)OCO4)cc(OC)c1OC (centres unmarked) | mouse Splenocyte | cell growth or viability, resazurin | 48 h | > 100 µM

A few entries again:
SMILES | cell line | test | conditions | CC50
COc1cc(COC(=O)C2C(C=O)=Cc3cc4c(cc3C2c2cc(OC)c(OC)c(OC)c2)OCO4)cc(OC)c1OC (centres unmarked) | mouse Splenocyte | cell growth or viability, resazurin | 48 h | 51.3 µM
CC1(C)CC[C@]2(CO)CC[C@]3(C)C(=CC[C@@H]4[C@@]5(C)CCCNC(C)(C)[C@@H]5CC[C@]43C)[C@@H]2C1 | C-33 A | cell viability, CellTiter-Glo | – | 0.78 µM
